Assay results from different studies.
Each line is one published result; not all experiments were run side by side.
Organism: Acinetobacter baumannii

CC[C@H](C)[C@H](NC(=O)CNC(=O)[C@H](CC(=O)O)NC(=O)[C@H](CCCNC(=N)N)NC(=O)[C@@H](NC(=O)[C@H](CC(N)=O)NC(=O)[C@H](CCC(=O)O)NC(=O)CNC(=O)[C@@H](NC(=O)[C@H](CCCCN)NC(=O)[C@H](CCC(=O)O)NC(=O)[C@@H](NC(=O)[C@H](CCCCN)NC(=O)[C@H](CCCCN)NC(=O)[C@H](Cc1ccccc1)NC(=O)[C@@H](NC(=O)[C@H](CCCCN)NC(=O)[C@H](Cc1c[nH]c2ccccc12)NC(=O)[C@@H](N)CCCNC(=N)N)[C@@H](C)CC)[C@@H](C)CC)C(C)C)C(C)C)C(=O)N[C@H](C(=O)N[C@@H](CCCCN)C(=O)N[C@@H](C)C(=O)NCC(=O)N1CCC[C@H]1C(=O)N[C@@H](C)C(=O)N[C@H](C(=O)N[C@@H](C)C(=O)N[C@H](C(=O)N[C@H](C(=O)NCC(=O)N[C@@H](CCC(N)=O)C(=O)N[C@@H](C)C(=O)N[C@@H](C)C(=O)N[C@H](C(=O)N[C@H](C(=O)N[C@H](C(=O)N[C@@H](CCCCN)C(N)=O)C(C)C)C(C)C)[C@@H](C)O)C(C)C)C(C)C)C(C)C)[C@@H](C)CC
MIC (KCCM 40203, Mueller-Hinton broth; 16 h, 37 °C; growth inhibition over 99%): 8 µM

CC[C@H](C)[C@H](NC(=O)CN)C(=O)NCC(=O)N[C@@H](CCCCN)C(=O)N[C@@H](Cc1ccccc1)C(=O)N[C@@H](CC(C)C)C(=O)N[C@@H](CCCCN)C(=O)N[C@@H](CCCCN)C(=O)N[C@@H](C)C(=O)N[C@@H](CCCCN)C(=O)N[C@@H](CCCCN)C(=O)N[C@@H](Cc1ccccc1)C(=O)NCC(=O)N[C@@H](CCCCN)C(=O)N[C@@H](C)C(=O)N[C@@H](Cc1ccccc1)C(=O)N[C@H](C(=O)N[C@@H](CCCCN)C(=O)N[C@H](C(=O)N[C@@H](CC(C)C)C(=O)N[C@@H](CCCCN)C(=O)N[C@@H](CCCCN)C(N)=O)[C@@H](C)CC)C(C)C
MIC (broth dilution; ATCC 19606): < 3.1 µM

CC[C@H](C)[C@H](NC(=O)[C@H](CC(C)C)NC(=O)[C@H](CCCNC(=N)N)NC(=O)[C@H](CC(C)C)NC(=O)[C@@H](NC(=O)[C@@H](NC(=O)[C@H](CCCNC(=N)N)NC(=O)[C@@H](NC(=O)[C@@H](NC(=O)[C@H](CCCNC(=N)N)NC(=O)[C@H](CCCNC(=N)N)NC(=O)[C@H](CCCNC(=N)N)NC(=O)[C@H](CO)NC(=O)[C@@H](N)CCCNC(=N)N)[C@@H](C)CC)[C@@H](C)CC)[C@@H](C)CC)C(C)C)C(=O)N[C@@H](CCCNC(=N)N)C(=O)N[C@@H](CCCNC(=N)N)C(=O)N[C@@H](CO)C(=O)N[C@@H](C)C(=O)N[C@@H](CCCNC(=N)N)C(N)=O
MIC (broth microdilution; ATCC 17978; highest value reported): 2 µM

CC[C@@H](C)[C@@H](N)C(=O)N[C@@H](C(=O)N[C@H](Cc1ccc(O)cc1)C(=O)N[C@@H](C(=O)N[C@H](CCN)C(=O)N[C@H](CC(C)C)C(=O)N[C@H](CO)C(=O)N[C@H](CCN)C(=O)N[C@@H](C(=O)N[C@H](CCN)C(=O)N[C@H](Cc1c[nH]cn1)C(=O)N[C@H](CCN)C(=O)N[C@H](C)C(=O)N[C@H](CCN)C(=O)N[C@H](CCN)C(N)=O)[C@H](C)CC)[C@H](C)CC)[C@H](C)CC
MIC (broth microdilution; CDC 0288, Mueller-Hinton broth): 8 µg/mL

CC[C@H](C)[C@H](NC(=O)[C@H](CC(C)C)NC(=O)[C@H](CCCNC(=N)N)NC(=O)[C@@H](N)CCCNC(=N)N)C(=O)N[C@@H](CCCNC(=N)N)C(=O)N[C@H](C(=O)N[C@@H](CC(=O)O)C(=O)N[C@H](C(=O)NCC(=O)N1CCC[C@H]1C(=O)N[C@H](C(=O)N[C@H](C(=O)N[C@@H](Cc1ccc(O)cc1)C(=O)N[C@@H](CC(=O)O)C(=O)N[C@@H](Cc1ccc(O)cc1)C(=O)N[C@@H](Cc1ccccc1)C(=O)N[C@@H](CCCCN)C(=O)N[C@@H](CC(=O)O)C(=O)N[C@@H](CCC(N)=O)C(=O)N[C@@H](CC(C)C)C(=O)N[C@@H](CC(C)C)C(=O)N[C@@H](CCCCN)C(=O)N[C@@H](CCCCN)C(N)=O)[C@@H](C)CC)[C@@H](C)CC)[C@@H](C)O)[C@@H](C)O
MIC (ATCC BAA1605, Mueller-Hinton broth; 24 h): 64 µM

N=C(N)NCCC[C@H](NC(=O)[C@H](Cc1c[nH]c2ccccc12)NC(=O)[C@@H](N)CCCNC(=N)N)C(=O)N[C@@H](Cc1c[nH]c2ccccc12)C(=O)N[C@@H](Cc1ccccc1)C(=O)N[C@@H](CCC(N)=O)C(=O)N[C@@H](Cc1ccccc1)C(=O)N[C@@H](CCC(N)=O)C(=O)N[C@@H](Cc1ccccc1)C(=O)N[C@@H](CCCCN)C(N)=O
MIC (broth microdilution, optical density): 280 µM

CCCCCCCC(=O)N[C@@H](CCN)C(=O)N[C@H](C(=O)N[C@@H](CCN)C(=O)N[C@H]1CCNC(=O)[C@H]([C@@H](C)O)NC(=O)[C@H](CCN)NC(=O)[C@H](CCN)NC(=O)[C@H](Cc2ccccc2)NC(=O)[C@@H](CCc2ccccc2)NC(=O)[C@H](CCN)NC1=O)[C@@H](C)O
MIC (broth microdilution; ATCC 19606, colistin-susceptible): 0.125 to 0.25 µg/mL

CC[C@H]1OC(=O)[C@H](C)[C@@H](O[C@H]2C[C@@](C)(OC)[C@@H](O)[C@H](C)O2)[C@H](C)[C@@H](O[C@@H]2O[C@H](C)C[C@H](N(C)C)[C@H]2O)[C@](C)(O)C[C@@H](C)C(=O)[C@H](C)[C@@H](O)[C@]1(C)O
MIC (growth inhibition; Tn7::dCas9 vector control; without ATc): 2 µg/mL

CC[C@H](C)[C@H](NC(=O)CNC(=O)[C@H](CC(=O)O)NC(=O)[C@H](CCCNC(=N)N)NC(=O)[C@@H](NC(=O)[C@H](CC(N)=O)NC(=O)[C@H](CCCNC(=N)N)NC(=O)CNC(=O)[C@@H](NC(=O)[C@H](CCCCN)NC(=O)[C@H](CCC(=O)O)NC(=O)[C@@H](NC(=O)[C@H](CCCCN)NC(=O)[C@H](CCCCN)NC(=O)[C@H](Cc1ccccc1)NC(=O)[C@@H](NC(=O)[C@H](CCCCN)NC(=O)[C@H](Cc1c[nH]c2ccccc12)NC(=O)[C@@H](N)CCCNC(=N)N)[C@@H](C)CC)[C@@H](C)CC)C(C)C)C(C)C)C(=O)N[C@H](C(=O)N[C@@H](CCCCN)C(=O)N[C@@H](C)C(=O)NCC(=O)N1CCC[C@H]1C(=O)N[C@@H](C)C(=O)N[C@H](C(=O)N[C@@H](C)C(=O)N[C@H](C(=O)N[C@H](C(=O)NCC(=O)N[C@@H](CCC(N)=O)C(=O)N[C@@H](C)C(=O)N[C@@H](C)C(=O)N[C@H](C(=O)N[C@H](C(=O)N[C@H](C(=O)N[C@@H](CCCCN)C(N)=O)C(C)C)C(C)C)[C@@H](C)O)C(C)C)C(C)C)C(C)C)[C@@H](C)CC
MIC (CCARM 12004 carbapenem-resistant): 1 µM

CC[C@H](C)CCCCC(=O)N[C@@H](CCN)C(=O)N[C@H](C(=O)N[C@@H](CCN)C(=O)N[C@H]1CCNC(=O)[C@H]([C@@H](C)O)NC(=O)[C@H](CCN)NC(=O)[C@H](CCN)NC(=O)[C@H](CC(C)C)NC(=O)[C@@H](CC(C)C)NC(=O)[C@H](CCN)NC1=O)[C@@H](C)O
MIC (lab-evolved 408): 8 µg/mL

For quick reference, copied from above:
CC[C@H](C)[C@H](NC(=O)[C@H](CC(C)C)NC(=O)[C@H](CCCNC(=N)N)NC(=O)[C@H](CC(C)C)NC(=O)[C@@H](NC(=O)[C@@H](NC(=O)[C@H](CCCNC(=N)N)NC(=O)[C@@H](NC(=O)[C@@H](NC(=O)[C@H](CCCNC(=N)N)NC(=O)[C@H](CCCNC(=N)N)NC(=O)[C@H](CCCNC(=N)N)NC(=O)[C@H](CO)NC(=O)[C@@H](N)CCCNC(=N)N)[C@@H](C)CC)[C@@H](C)CC)[C@@H](C)CC)C(C)C)C(=O)N[C@@H](CCCNC(=N)N)C(=O)N[C@@H](CCCNC(=N)N)C(=O)N[C@@H](CO)C(=O)N[C@@H](C)C(=O)N[C@@H](CCCNC(=N)N)C(N)=O
MIC (broth microdilution; ATCC 17978; highest value reported): 2 µM
